Published values pooled from the literature.
Compare with care: the assays were run in different laboratories.
EGFR L858R: Epidermal growth factor receptor (EGFR, Homo sapiens, UniProt P00533, L858R)
EGFR: Epidermal growth factor receptor (EGFR, Homo sapiens, UniProt P00533)

CS(C)(=O)=Nc1ccc(-c2ccc(-c3nc4cc(O[C@@H]5CO[C@H]6[C@@H]5OC[C@H]6O)[nH]c4cc3F)cc2)cc1 — inhibition (EGFR L858R; enzyme activity, inhibitor; 10 µM): -16%
O=C(O)c1ccccc1/C=N/Nc1nc(-c2ccccc2Cl)cs1 — inhibition (EGFR; enzyme activity, inhibitor; 1 µM): -1.7%
Nc1ccc(/C=C/C(=O)N2CCc3c(oc4c(-c5ccc(F)cc5)cc(-c5ccc(C(=O)N6CCC(F)(F)CC6)cn5)cc34)C2)cn1 — remaining binding (EGFR; binding, competition with immobilised ligand; 1 µM): 78%
O=C1NC(=O)c2c1c1cc(F)c[n+]3c1c1c2c2cc(O)ccc2[n]1[Ru-4]312([N]=C=S)[S+]3CC[S+]1CC[S+]2CC3 (centres unmarked) — remaining activity (EGFR L858R; enzyme activity; 100 nM, human enzyme, together with: 10 µM ATP; relative to: untreated): 61%
O=C(CN1CN(c2ccccc2)C2(CCN(C(=O)c3cnc4[nH]ncc4c3)CC2)C1=O)NCC(F)(F)F — inhibition (EGFR (Homo sapiens, UniProt P00533, del752-759); inhibitor; concentration not given): < 50%
CC(C)[C@H]1NC(=O)C[C@H]2/C=C/CCSSC[C@@H](NC1=O)C(=O)N[C@H](Cc1cccc3ccccc13)C(=O)NCC(=O)O2 — inhibition (EGFR; enzyme activity, inhibitor; 10 µM): -10.7%
CN[C@@H]1[C@H](O)[C@H](NC)[C@H]2O[C@]3(O)[C@H](O[C@@H]2[C@H]1O)O[C@H](C)C[C@H]3NC(=O)Cc1ccc(Cl)cn1 — inhibition (EGFR; 10 µM): -15%
CCOC(=O)[C@@H]1Cc2c(cc([N+](=O)[O-])cc2[N+](=O)[O-])[C@H](O)[C@]12C(=O)Nc1ccc(Br)cc12 — remaining binding (EGFR L858R; KINOMEscan; 100 nM; relative to: DMSO control): 98%

Repeated from above:
O=C(O)c1ccccc1/C=N/Nc1nc(-c2ccccc2Cl)cs1 — inhibition (EGFR; enzyme activity, inhibitor; 1 µM): -1.7%
